Measured values pooled from the literature.
A part holds a random share of what one study measured. “And” joins repeats or separate records; there may be more than shown.

Block 1
Target: Replicase polyprotein 1ab, main protease (rep, Severe acute respiratory syndrome coronavirus 2, UniProt P0DTD1)
Observed: enzyme activity
Mode: inhibitor
Tested at: 20 µM
Setting: hit confirmation
Endpoint: inhibition
CC[N+](C)(CC)CCC[n+]1c(-c2ccccc2)c2cc(N)ccc2c2ccc(N)cc21: 90.9%
CC[C@H](CO)Nc1nc(NCc2ccc(-c3ccccn3)cc2)c2ncn(C(C)C)c2n1: 99.9%
O=C(/C=C/c1ccc2ccccc2n1)c1ccncc1: 95%

Block 2
Cell line: HEK-293T/ACE2
Tested at: concentration not given
Time: 16 (unit not given)
Baseline: vehicle
Endpoint: viability
COc1ccc(C(=O)c2ccccc2)c(O)c1: 104%
CN(C)c1cc(NC(=O)CNC(C)(C)C)c(O)c2c1C[C@H]1C[C@H]3[C@H](N(C)C)C(O)=C(C(N)=O)C(=O)[C@@]3(O)C(O)=C1C2=O: 104%
COc1c(C)c2c(c(O)c1C/C=C(\C)CCC(=O)O)C(=O)OC2: 93.3%
CNC1(C)C2CCC(C2)C1(C)C (stereo not shown): 107%

Block 3
Target: Replicase polyprotein 1ab, nsp13 helicase (rep, Severe acute respiratory syndrome coronavirus 2, UniProt P0DTD1)
Observed: helicase activity
Organism: SARS-CoV-2
Endpoint: IC50
O=Nc1ccc(O)c2ncccc12: 1.07 µM
CCn1c(N)c(C(=O)NC)c(=O)c2ccc(C#C[C@@](C)(O)COC)nc21: 50.4 µM
N#CSc1cc(SC#N)c(N)nc1N: 34.5 µM
Cc1ccc(S(=O)(=O)/C=C/C#N)cc1: 1.63 µM
Cc1ccc(-n2sc(=O)n(Cc3ccc(F)cc3)c2=O)cc1: 2.76 µM
O=S(=O)(O)c1ccc(-c2c3nc(c(-c4ccc(S(=O)(=O)O)cc4)c4ccc([nH]4)c(-c4ccc(S(=O)(=O)O)cc4)c4nc(c(-c5ccc(S(=O)(=O)O)cc5)c5ccc2[nH]5)C=C4)C=C3)cc1: 40 µM
CCOC(=O)C1=C(N)Oc2ccc(Br)cc2[C@H]1[C@H](C#N)C(=O)OCC: 46.9 µM and 44.6 µM
Cc1nc(C#Cc2ccnc(Cl)c2)c(C)n1-c1ccc(OC(F)(F)F)cc1: 9.14 µM
O=c1[nH]nc(Sc2ncc([N+](=O)[O-])s2)n1-c1ccc2c(c1)OCCO2: 6.73 µM
CC(C)(C)c1ccc(S(=O)(=O)/C=C/C#N)cc1: 1.37 µM
Nc1nnc(Sc2ncc([N+](=O)[O-])s2)s1: 1.34 µM
Oc1c(I)cc(I)c(O)c1I: 1.27 µM
O=C1C=CC(=O)C2=C1C1c3ccccc3C2c2ccccc21: 1.33 µM

Block 4
Target: Transcriptional repressor CTCF (CTCF, Homo sapiens, UniProt P49711, residues 1-727, full length assumed)
Sequence of UniProt P49711 (whole entry, looked up): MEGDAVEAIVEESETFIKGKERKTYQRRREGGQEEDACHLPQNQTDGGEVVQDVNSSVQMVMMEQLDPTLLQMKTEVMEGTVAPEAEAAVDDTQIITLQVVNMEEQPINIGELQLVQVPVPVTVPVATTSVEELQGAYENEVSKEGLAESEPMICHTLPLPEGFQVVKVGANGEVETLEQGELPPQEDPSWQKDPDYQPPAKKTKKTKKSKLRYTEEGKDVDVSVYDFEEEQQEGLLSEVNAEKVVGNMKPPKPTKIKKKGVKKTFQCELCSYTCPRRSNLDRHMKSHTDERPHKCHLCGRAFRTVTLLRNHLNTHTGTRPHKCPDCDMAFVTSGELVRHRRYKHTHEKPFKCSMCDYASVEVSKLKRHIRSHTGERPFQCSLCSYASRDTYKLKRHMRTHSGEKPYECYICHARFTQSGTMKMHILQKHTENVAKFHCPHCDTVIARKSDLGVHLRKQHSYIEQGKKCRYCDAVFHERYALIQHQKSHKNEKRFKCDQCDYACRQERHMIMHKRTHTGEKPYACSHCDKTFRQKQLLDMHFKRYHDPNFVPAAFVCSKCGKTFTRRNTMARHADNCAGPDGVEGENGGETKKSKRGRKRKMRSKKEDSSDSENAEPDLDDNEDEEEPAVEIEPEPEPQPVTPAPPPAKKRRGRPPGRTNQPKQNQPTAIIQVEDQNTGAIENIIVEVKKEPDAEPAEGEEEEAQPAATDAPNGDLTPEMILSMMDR
Method: protein-binding microarray
Form: double-stranded DNA, one strand shown
Medium: in vitro
Tested at: not given
Setting: k-mer, scored over probes, only values ≥0.25
Direction: higher = stronger binding
Endpoint: E-score
ATTAAACA: 0.299
AACAATCC: 0.28
ACTATAGT: 0.29
AATGAATG: 0.284
GAGCGCGC: 0.269
GCAATTAC: 0.296
CGCAATAC: 0.315
AGTTTTAC: 0.295

For quick reference, copied from above (block 4):
ACTATAGT: 0.29
AATGAATG: 0.284
